# Assay results pooled from the literature.
# Parts stem from different laboratories: compare values within a part only.

# Series 1
# Target: RNA binding protein fox-1 homolog 2, RRM domain, GST-SBP tag (RBFOX2, Homo sapiens, UniProt O43251-10, residues 100-194)
# Technique: RNA Bind-n-Seq
# Form: RNA
# Medium: in vitro
# Tested at: 365 nM
# Setting: natural RNA segment, single round, ends assumed
# Baseline: no-protein control
# Reading: higher = stronger binding
# Construct (chain): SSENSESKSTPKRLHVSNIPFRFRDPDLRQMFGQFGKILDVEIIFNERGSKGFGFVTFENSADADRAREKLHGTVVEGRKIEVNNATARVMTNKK
Oligonucleotide,RBNS enrichment (R)
GGGAGUUCUACAGUCCGACGAUCUCCUGACCCUCAGCUGGCCCUGCCCAGCCACCCUGGACGUGACCGUAUCCCUCUGCCACACCCCAGGCCCUGCGAGGGGCUAUCGAGAGGAGCUCACUGUGGGAUGGGGUUGGAAUUCUCGGGUGCCAA,0.216
GGGAGUUCUACAGUCCGACGAUCAAAGAAUAAAAGCAUGUACUUCACAGCUAGCAUGUUCACAGAUUUGAAAGAAGUUUCAUUAAAAGCACCAUUGCUUUCUGUACUGCGUCAGUGCCUCAUUGUAUCAUCCUUGGAAUUCUCGGGUGCCAA,3.25
GGGAGUUCUACAGUCCGACGAUCGCUGUGUUCUGUGACUCAAUUGUAUCGUGUUACUCUCAGUACAGACCGUCUCCUCUACGUGACCGUAUAAUGUUUUUUCUCCUCUUGUAGUCUUUAUGGUGUGUCUUUAUUGGAAUUCUCGGGUGCCAA,0.648
GGGAGUUCUACAGUCCGACGAUCCUUUAAGAGAUUUUCAGAAAAGCUUUAUAUACAUUCUUUUCCAAUUUCAGUACAAAUGAAAGAAAAGUGGUUUUAAUCAGUGAUUUAGUGGACCUUGAGCAACUGUGCACUGGAAUUCUCGGGUGCCAA,0.356

# Series 2
# Target: Sal-like protein 4, full length isoform B (SALL4, Homo sapiens, UniProt Q9UJQ4-2, residues 1-616)
# Technique: universal PBM
# Form: double-stranded DNA, one strand shown
# Medium: in vitro
# Tested at: not given
# Setting: 8-mer, flanks averaged, mean of replicates
# Reading: higher = stronger binding
# Target sequence (chain): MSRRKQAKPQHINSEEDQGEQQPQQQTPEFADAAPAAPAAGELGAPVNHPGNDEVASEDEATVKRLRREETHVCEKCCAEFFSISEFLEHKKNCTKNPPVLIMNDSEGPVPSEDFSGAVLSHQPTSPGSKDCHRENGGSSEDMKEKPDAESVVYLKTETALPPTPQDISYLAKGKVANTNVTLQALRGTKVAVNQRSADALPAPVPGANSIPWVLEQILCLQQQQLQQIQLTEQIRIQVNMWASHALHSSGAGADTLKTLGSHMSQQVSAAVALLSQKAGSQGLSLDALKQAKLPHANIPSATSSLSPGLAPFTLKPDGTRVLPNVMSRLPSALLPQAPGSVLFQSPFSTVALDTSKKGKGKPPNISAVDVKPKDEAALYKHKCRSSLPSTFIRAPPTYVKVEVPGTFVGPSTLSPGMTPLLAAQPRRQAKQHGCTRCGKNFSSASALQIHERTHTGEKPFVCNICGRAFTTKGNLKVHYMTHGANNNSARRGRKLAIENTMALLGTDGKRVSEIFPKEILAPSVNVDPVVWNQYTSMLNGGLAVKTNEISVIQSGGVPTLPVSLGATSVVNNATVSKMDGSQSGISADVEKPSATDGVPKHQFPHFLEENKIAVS
Oligonucleotide,E-score
TCCACAAA,0.149
AAAACTTG,0.27
GCCTCTGA,-0.181
AGGCCTCC,-0.204
TCCGCCCA,-0.201
GTGGTGAA,-0.0878

# Series 3
# Target: Histone acetyltransferase KAT6A, winged helix 1, GST fusion (KAT6A, Homo sapiens, UniProt Q92794, residues 1-85)
# Technique: protein binding microarray
# Form: double-stranded DNA, one strand shown
# Medium: in vitro
# Tested at: not given
# Setting: 8-mer, flanks averaged, mean of 2 arrays, mostly near background
# Baseline: not given
# Reading: higher = stronger binding
# Residues (chain): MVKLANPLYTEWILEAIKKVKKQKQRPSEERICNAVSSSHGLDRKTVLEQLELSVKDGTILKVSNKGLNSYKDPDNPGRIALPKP
Oligonucleotide,E-score
ATATAACG,-0.0742
AACAAACG,0.0512
AAGGCACT,-0.226

# Other studies, line by line
Molecule,target,assay,system,setting,how to read,quantity,result
"PhoQ, residues 284 288 289 292 302 303 GNNTDL","PhoP, residues 12 14 15 18 19 NFCKL (Escherichia coli, UniProt P23836)","Sort-seq, measured: YFP reporter",E. coli,"PhoQ-PhoP variant library, with: 10 µM Mg2+","baseline: high Mg2+ state, higher = stronger signaling",fold induction,4.66
